Published values of several laboratories.
Lines come from different studies, so protocols differ. Several values in a cell are separate wells, animals, samples, runs or records. ± gives the spread as reported.
Cell line: HeLa

The IC50 of `CC[C@H](C)[C@@H]([C@@H](CC(=O)N1CCC[C@H]1[C@H](OC)[C@@H](C)C(=O)N[C@H](C)[C@@H](O)c1ccccc1)OC)N(C)C(=O)[C@@H](NC(=O)[C@@H](NC)C(C)C)C(C)C` is reported as 0.0011 µM (cell proliferation, MTT; with transthyretin).
The IC50 of `COCCOCCOCCOCCOCCOCCOCCOCCC(=O)N1CCC[C@H]1C(=O)N[C@@H](CC(C)C)C(=O)N[C@@H](Cc1cncn1CCCCCCCCc1ccccc1)C(=O)N[C@@H](CO)C(=O)N[C@H](C(N)=O)[C@@H](C)CP(=O)(O)O` is reported as about 380 µM (cell proliferation; 24 h, thymidine-block synchronised).
For `C[C@@H](N)[C@H](O)CCCCCCCC(=O)CCCCCCCCCCCCCC[C@@H](O[C@@H]1O[C@H](CO)[C@@H](O)[C@H](O)[C@H]1O)[C@@H](N)CO`, the growth inhibition was 92 ± 3.08% (cytotoxicity; concentration not given).
The IC50 of `c1cnc2c(c1)c1nccnc1c1cccnc12` is reported as over 50 µM (cell growth or viability, MTT; 48 h).
`C#CCCCC[C@H](C)C[C@@H](C)C(=O)N(C)[C@H](C(=O)N(C)[C@@H](Cc1ccccc1)C(=O)N1CCC[C@H]1C(=O)N1CCC[C@H]1C(C)=O)C(C)C` has an IC50 of 3.12 µM and 3.02 µM and 3.22 µM (cell growth or viability, SRB).
For `CC(C)=CCc1c(O)cc2c(c1O)C(=O)CC(c1ccc(O)cc1)O2` (centres unmarked), the inhibition was 49% (cell growth or viability, MTT; 25 µM, 48 h).
The nuclear concentration of `N=C(N)NCCC[C@H](NC(=O)[C@H](CCCNC(=N)N)NC(=O)[C@H](CCCNC(=N)N)NC(=O)[C@H](CCC(N)=O)NC(=O)[C@H](CCCNC(=N)N)NC(=O)[C@H](CCCNC(=N)N)NC(=O)[C@H](CCCCN)NC(=O)[C@H](CCCCN)NC(=O)[C@H](CCCNC(=N)N)NC(=O)[C@H](Cc1c[nH]c2ccccc12)NC(=O)[C@H](Cc1c[nH]c2ccccc12)NC(=O)[C@@H](N)CSSC[C@H](N)C(=O)N[C@@H](Cc1c[nH]c2ccccc12)C(=O)N[C@@H](Cc1c[nH]c2ccccc12)C(=O)N[C@@H](CCCNC(=N)N)C(=O)N[C@@H](CCCCN)C(=O)N[C@@H](CCCCN)C(=O)N[C@@H](CCCNC(=N)N)C(=O)N[C@@H](CCCNC(=N)N)C(=O)N[C@@H](CCC(N)=O)C(=O)N[C@@H](CCCNC(=N)N)C(=O)N[C@@H](CCCNC(=N)N)C(=O)N[C@@H](CCCNC(=N)N)C(=O)NCC(N)=O)C(=O)NCC(N)=O` is reported as 3 to 10 µM (protein delivery, fluorescence microscopy, refers to: AF488-H1; 2.5 µM, 1 h, added: AF488-H1 0.75 µM).
`C[C@H](N)[C@@H](CCCCCCCCCCCCCCC(=O)CCCCCCC[C@@H](O)[C@@H](C)N)O[C@@H]1O[C@H](CO)[C@H](O)[C@H](O)[C@H]1O` gave a growth inhibition of 99 ± 0.05% (cytotoxicity; concentration not given).
For `Cc1cc(=O)oc2cc(OCCCCCC[Se]C#N)ccc12`, the GI50 was 3 µM (cell growth or viability, SRB).
For `CSc1cc(C)[nH]c(=O)c1CNC(=O)c1c(C)n([C@H](C)C2CCN(CC(F)(F)F)CC2)c2ccccc12`, the EC50 was 0.0025 µM (histone methylation reduction, AlphaLISA, refers to: H3K27me3; 72 h).
For `C#CCCCC[C@H](C)C[C@@H](C)C(=O)N[C@@H](C)C(=O)N1CCC[C@H]1C(=O)N[C@H](C(=O)N[C@H](C(=O)N[C@H](C(=O)N[C@@H](Cc1ccccc1)C(=O)N1CCC[C@H]1C(=O)N1CCC[C@H]1C(C)=O)C(C)C)C(C)C)C(C)C`, the IC50 was 41.3 µM and 38 µM and 37 µM (cell growth or viability, SRB).
`CNC(=S)NCCCC[C@H](NC(=O)CCc1ccccc1)C(=O)N[C@@H](CCCNC(=N)N)C(=O)N[C@@H](CC1CCCCC1)C(=O)N[C@H](CCCCN)C(=O)N[C@@H](CC1CCCCC1)C(N)=O` has an EC50 of 48.7 µM (cell growth or viability, MTT; 72 h).
For `C#CCCCC[C@H](C)C[C@@H](C)C(=O)N(C)[C@@H](C)C(=O)N1CCC[C@H]1C(=O)N(C)[C@H](C(=O)N(C)[C@H](C(=O)OC)C(C)C)C(C)C`, the IC50 was 3.47 µM and 2.8 µM and 3.14 µM (cell growth or viability, SRB).
`CC(N)C(O)CCCCCCCCCCCCCCC(=O)CCCCCCCC(O)C(C)N` (centres unmarked) gave a growth inhibition of 16% (cytotoxicity; concentration not given).

Some of these lines once more:
`C[C@H](N)[C@@H](CCCCCCCCCCCCCCC(=O)CCCCCCC[C@@H](O)[C@@H](C)N)O[C@@H]1O[C@H](CO)[C@H](O)[C@H](O)[C@H]1O` gave a growth inhibition of 99 ± 0.05% (cytotoxicity; concentration not given).
